Results gathered from unrelated publications.
Parts stem from different laboratories: compare values within a part only. Changes are numbered by the printed parent chain.
Sequence of UniProt Q9Y3S1 (whole entry, looked up): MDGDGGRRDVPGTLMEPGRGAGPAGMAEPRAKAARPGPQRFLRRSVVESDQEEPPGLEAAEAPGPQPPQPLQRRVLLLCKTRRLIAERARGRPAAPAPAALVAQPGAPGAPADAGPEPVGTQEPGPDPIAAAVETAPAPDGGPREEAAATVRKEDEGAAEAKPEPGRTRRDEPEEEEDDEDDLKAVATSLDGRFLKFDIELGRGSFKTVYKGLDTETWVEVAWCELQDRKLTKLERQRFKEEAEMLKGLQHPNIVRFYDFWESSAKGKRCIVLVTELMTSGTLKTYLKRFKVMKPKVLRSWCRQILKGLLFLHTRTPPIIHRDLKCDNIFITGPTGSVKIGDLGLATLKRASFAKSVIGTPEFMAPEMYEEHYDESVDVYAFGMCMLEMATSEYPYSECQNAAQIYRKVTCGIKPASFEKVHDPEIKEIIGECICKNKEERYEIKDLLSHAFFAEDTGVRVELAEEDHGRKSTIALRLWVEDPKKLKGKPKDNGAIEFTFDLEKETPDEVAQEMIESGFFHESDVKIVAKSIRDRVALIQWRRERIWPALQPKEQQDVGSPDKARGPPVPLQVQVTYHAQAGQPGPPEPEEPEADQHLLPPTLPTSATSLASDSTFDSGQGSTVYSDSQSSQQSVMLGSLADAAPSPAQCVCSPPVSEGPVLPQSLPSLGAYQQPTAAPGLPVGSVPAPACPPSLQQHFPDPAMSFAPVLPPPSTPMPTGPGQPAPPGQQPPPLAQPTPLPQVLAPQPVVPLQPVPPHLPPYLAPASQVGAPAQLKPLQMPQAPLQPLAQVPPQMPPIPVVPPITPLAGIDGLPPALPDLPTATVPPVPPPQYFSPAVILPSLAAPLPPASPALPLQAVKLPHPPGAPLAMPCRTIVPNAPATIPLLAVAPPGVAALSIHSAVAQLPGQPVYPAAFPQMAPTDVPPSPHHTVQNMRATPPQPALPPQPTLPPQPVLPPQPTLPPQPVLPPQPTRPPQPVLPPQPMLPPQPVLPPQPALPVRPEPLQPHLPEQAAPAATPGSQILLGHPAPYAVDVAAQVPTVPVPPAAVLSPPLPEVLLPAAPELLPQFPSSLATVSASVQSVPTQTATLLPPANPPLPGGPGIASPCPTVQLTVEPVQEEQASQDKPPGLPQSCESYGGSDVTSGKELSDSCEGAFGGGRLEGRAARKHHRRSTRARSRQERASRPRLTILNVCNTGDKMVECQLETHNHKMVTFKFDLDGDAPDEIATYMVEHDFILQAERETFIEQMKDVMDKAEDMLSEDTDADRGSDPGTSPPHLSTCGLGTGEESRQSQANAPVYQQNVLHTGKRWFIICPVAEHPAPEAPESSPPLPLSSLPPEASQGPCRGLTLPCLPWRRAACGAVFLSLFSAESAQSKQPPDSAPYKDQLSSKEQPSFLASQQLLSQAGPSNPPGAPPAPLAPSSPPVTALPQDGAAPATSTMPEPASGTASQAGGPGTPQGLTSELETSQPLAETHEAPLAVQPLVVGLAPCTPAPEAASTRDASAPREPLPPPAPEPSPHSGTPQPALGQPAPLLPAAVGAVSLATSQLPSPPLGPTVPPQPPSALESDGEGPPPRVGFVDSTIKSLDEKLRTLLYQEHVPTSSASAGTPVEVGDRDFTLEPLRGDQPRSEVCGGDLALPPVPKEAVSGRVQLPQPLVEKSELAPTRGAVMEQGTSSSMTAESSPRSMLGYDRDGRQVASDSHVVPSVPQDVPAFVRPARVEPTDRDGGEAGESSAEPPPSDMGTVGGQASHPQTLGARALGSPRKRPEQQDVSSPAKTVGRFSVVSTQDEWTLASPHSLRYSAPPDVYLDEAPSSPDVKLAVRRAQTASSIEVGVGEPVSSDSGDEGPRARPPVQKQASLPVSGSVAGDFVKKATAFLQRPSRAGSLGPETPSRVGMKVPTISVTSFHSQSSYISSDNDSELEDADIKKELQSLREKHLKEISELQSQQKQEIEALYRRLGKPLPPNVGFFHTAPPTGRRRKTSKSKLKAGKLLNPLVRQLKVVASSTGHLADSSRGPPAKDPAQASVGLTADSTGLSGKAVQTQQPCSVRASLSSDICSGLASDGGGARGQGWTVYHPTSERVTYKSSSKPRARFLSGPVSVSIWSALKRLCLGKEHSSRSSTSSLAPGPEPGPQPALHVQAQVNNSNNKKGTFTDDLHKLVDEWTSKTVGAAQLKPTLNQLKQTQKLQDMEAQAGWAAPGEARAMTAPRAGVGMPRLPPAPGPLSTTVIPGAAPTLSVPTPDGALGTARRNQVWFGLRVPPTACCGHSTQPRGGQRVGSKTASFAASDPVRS

Set 1
Target: OGT, full length, His-tagged (human)
Technique: phage display, sequencing
Medium: in vitro
Tested at: 1 µg OGT
Notes: single substitutions, 15-mer displayed peptide, unchanged parent 6.14
Relative to: input library
Direction: higher = stronger binding
Parent: peptide; VAYPNSYMPKYQIST
Variant	fold enrichment
VAYPNSYMKKYQIST [P9K]	0.411 fold
VAYPNSYMPKYPIST [Q12P]	0.664 fold
TAYPNSYMPKYQIST [V1T]	7.28 fold
VAYPNSYMPKYQTST [I13T]	0.64 fold
VAYPNSYMGKYQIST [P9G]	1.27 fold
VAYPNSYMPKYQISY [T15Y]	13.9 fold
VAYPNSYMPRYQIST [K10R]	1.55 fold
VAYPPSYMPKYQIST [N5P]	0.625 fold

Set 2
Target: Histone acetyltransferase KAT6A, both winged helices, GST fusion (KAT6A, Homo sapiens, UniProt Q92794, residues 1-181)
Technique: protein binding microarray
Molecule type: double-stranded DNA, one strand shown
Medium: in vitro
Tested at: not given
Notes: 8-mer, flanks averaged, mean of 2 arrays, mostly near background
Relative to: not given
Direction: higher = stronger binding
Target sequence (chain): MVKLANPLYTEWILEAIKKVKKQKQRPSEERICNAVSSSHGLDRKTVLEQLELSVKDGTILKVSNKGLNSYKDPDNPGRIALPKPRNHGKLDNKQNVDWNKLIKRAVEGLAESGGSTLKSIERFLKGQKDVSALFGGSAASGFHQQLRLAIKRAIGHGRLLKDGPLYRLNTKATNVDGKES
Oligonucleotide	E-score
ATAGGATC	-0.134
GGTCATAA	-0.0335
TACGGGCA	0.306
CGGGTGTA	0.121
GCTAGTTA	0.00404
CCAACAGA	-0.145
AACGGCTT	0.205
AATAGGAC	-0.0999

Mixed results
Molecule	target or system	assay	system	conditions	endpoint	result
ERLIN1 (Homo sapiens, UniProt O75477)	ERLIN2 (Homo sapiens, UniProt O94905)	cross-linking MS	cell fractions	with: DSSO	cross-linked residues	K286 to K275
Cn1nc(C(F)(F)F)cc1-c1cnc(N2CCc3cc(S(=O)(=O)Nc4c(F)cc(Cl)cc4F)cc(N4CCCC4=O)c32)nc1	Serine/threonine-protein kinase WNK2 (WNK2, Homo sapiens, UniProt Q9Y3S1)	cell-free assay, competition with immobilised ligand	–	1 µM	remaining binding	81%

Repeated from above (set 1):
Variant	fold enrichment
VAYPNSYMKKYQIST [P9K]	0.411 fold
TAYPNSYMPKYQIST [V1T]	7.28 fold
